# Published values pooled from the literature.
# Numbers after ± are the reported error.
SMILES,test,test system,conditions,scale,endpoint,result
COc1ccc2nc(C)ccc2c1Nc1sn(C)c(=O)c1C#N,tail sensory nerve conduction,"mouse, paclitaxel neuropathy model","oral, 300 mg/kg daily, 15 days post-paclitaxel, with: paclitaxel",reference: vehicle,protection of SNAP amplitude,23.1 ± 7.3%
CC(C)[C@H](N)C(=O)N1CCC[C@H]1C(=O)NCC(=O)NCC(=O)O,"diketopiperazine formation, Arrhenius plot, ESI-MS",1-propanol,"70, 80, 90 °C, 0.5% acetic acid",,ΔG‡ at 298.15 K,22.9 ± 0.239 kcal/mol
COc1ccc(C2CC(c3ccc(C)cc3)=Nc3ccccc3S2)cc1OC (stereo not drawn),,"Wistar rat, STZ-induced diabetes, serum","10 mg/kg, 28 days",,ALT (SGPT),23.7 ± 2.3 IU/L
CC(C)[C@H](NC(=O)CN)C(=O)N[C@@H](CCCCN)C(=O)NCC(=O)N[C@@H](CC(=O)O)C(=O)N[C@@H](CCCCN)C(=O)NCC(=O)N[C@@H](CC(N)=O)C(=O)N1CCC[C@H]1C(=O)NCC(=O)N[C@@H](Cc1c[nH]c2ccccc12)C(=O)N1CCC[C@H]1C(=O)NCC(=O)N[C@@H](C)C(=O)N1CCC[C@H]1C(=O)O,,"bovine aortic endothelial cells, bovine","100 µg/mL coating, peptide-coated plates",reference: input cells,cell adhesion,0.8%
CC(C)(O)c1ccc(N2Cc3c(ccnc3-c3ccc(F)cc3OCC(F)(F)F)C2=O)cc1,,"mouse, cerebral cortex","300 mg/kg, 6 h",reference: vehicle,glucosylceramide level,40 ± 3%
CC[C@H](C)[C@H](NC(=O)[C@H](CCCNC(=N)N)NC(=O)[C@@H]1CCCN1C(=O)[C@@H](NC(=O)[C@H](CCCNC(=N)N)NC(=O)[C@H](Cc1ccccc1)NC(=O)[C@H](CC(=O)O)NC(=O)[C@@H]1CCCN1C(=O)[C@@H]1CCCN1C(=O)[C@H](CO)NC(=O)[C@H](Cc1c[nH]c2ccccc12)NC(=O)[C@@H]1CCCN1C(=O)[C@@H]1CCCN1C(=O)[C@H](CC(C)C)NC(=O)[C@H](Cc1c[nH]c2ccccc12)NC(=O)[C@@H]1CCCN1C(=O)CNC(=O)[C@@H]1CCCN1C(=O)[C@H](Cc1c[nH]c2ccccc12)NC(=O)[C@H](CC(N)=O)NC(=O)[C@@H]1CCCN1C(=O)[C@@H]1CCCN1C(=O)[C@H](Cc1c[nH]c2ccccc12)NC(=O)[C@H](Cc1ccccc1)NC(=O)[C@@H]1CCCN1C(=O)[C@@H](NC(=O)[C@H](CCCNC(=N)N)NC(=O)[C@@H](N)CCCNC(=N)N)[C@@H](C)CC)[C@@H](C)CC)C(=O)N[C@@H](CC(C)C)C(=O)N[C@@H](CCCNC(=N)N)C(=O)N[C@@H](CCCCN)C(=O)N[C@@H](CCCNC(=N)N)C(=O)O,"protein synthesis, luciferase reporter",E. coli coupled transcription-translation lysate,100 µM,,inhibition,70%
COc1c2c(cc3oc(CO)cc(=O)c13)O[C@H](C(C)(C)O)C2,analgesia,mouse,"oral, 1 mg/kg, 0.5 h",,hot plate latency,11.4 ± 1.48 s
CCc1nnc(NS(=O)(=O)c2ccc(NC(=S)NC(=O)/C=C/c3ccc(F)cc3)cc2)s1,,"NXS2 allograft, A/J mice, tumour","intraperitoneal, 20 mg/kg daily, 3 weeks",reference: vehicle,cleaved PARP level,increased
N#Cc1cc(C(=O)OCC[18F])c(C(F)(F)F)nc1N1CCN(C(=O)Cc2ccccc2)CC1,PET blocking,"C57BL/6 mouse, brain","60 min, self-blocking",reference: baseline,decrease of SUV,72.3%
Cc1nc(C)c(C=[N+]([O-])C(C)(C)C)nc1C,"Western blot, item: Nrf2","mouse, MPTP model, substantia nigra cytosol",10 mg/kg,,protein level increase,62.4%
Cc1cc(N)c2cc(NC(=O)C(=O)Nc3ccc4nc(C)cc(N)c4c3)ccc2n1,,mouse,"intravenous, 16 mg/kg, with: fondaparinux 0.5 mg/kg s.c.",reference: control,decrease in anti-FXa activity,93 ± 2.8%
CCCCCCCCCn1cc(C(N)(CO)CO)nn1,item: AT8 epitope,APP/PS1 mouse,dose not given,,tau hyperphosphorylation,decreased
NCCCC[C@H](N)C(=O)N1CCC[C@H]1C(=O)NCC(=O)NCC(=O)O,"diketopiperazine formation, Arrhenius plot, ESI-MS",1-propanol,"70, 80, 90 °C, 0.5% acetic acid",,ΔG‡ at 298.15 K,23.4 ± 6.21 kcal/mol
CC[C@H](C)[C@H](NC(=O)[C@H](CCCCN)NC(=O)[C@H](CC(N)=O)NC(=O)CNC(=O)[C@@H](NC(=O)[C@H](C)NC(=O)[C@H](CCCNC(=N)N)NC(=O)[C@H](CC(C)C)NC(=O)[C@H](CCCCN)NC(=O)[C@H](CCCCN)NC(=O)[C@H](CCCCN)NC(=O)[C@H](C)NC(=O)[C@H](CCCCN)NC(=O)[C@@H]1CSSC[C@H](NC(=O)[C@H](CCCNC(=N)N)NC(=O)CN)C(=O)N[C@@H](CC(N)=O)C(=O)N[C@@H](CC(C)C)C(=O)N[C@@H](CC(C)C)C(=O)N1)C(C)C)C(=O)N[C@@H](CCCCN)C(=O)N[C@@H](CCC(=O)O)C(=O)N[C@H](C(=O)N[C@@H](CCCCN)C(=O)N[C@@H](CC(N)=O)C(=O)N[C@H](C(=O)N[C@H](C(=O)N[C@@H](Cc1ccccc1)C(=O)N[C@@H](CC(N)=O)C(=O)N[C@@H](CCCNC(=N)N)C(=O)O)C(C)C)C(C)C)[C@@H](C)CC,item: TNF-α,"BALB/c mice, CLP-induced sepsis, serum and lung","intraperitoneal, 5 mg/kg, 12 h post-surgery",reference: vehicle,cytokine level,decreased
CC1OC(OC2C(c3c(O)cc(O)c4c(=O)cc(-c5ccc(O)cc5)oc34)OC(CO)C(O)C2O)C(O)C(O)C1O (stereo not drawn),,,,,"FRAP, TEAC",278 ± 13.3 µM TE/mM
Cc1[nH]nc2c1N=C(c1ccccc1Cl)c1cnc(N3CCOCC3)cc1N2,immunohistochemistry,"HCC1806 xenograft, nude mice, tumour",dose not given,,phospho-histone H3 level,decreased
CC(C)(CCCC/C=C/CCCCCC(C)(C)C(=O)O)C(=O)O,,"rhesus monkey, spontaneous hyperlipidemia","20 mg/kg, 2 weeks",reference: baseline,reduction in plasma LDL-C,20.1%
COc1cc(O)c(Cl)cc1/C=C/C(=O)c1ccc(C(F)(F)F)cc1,"immunofluorescence, item: occludin and ZO-1","mouse DSS colitis, intestine",dose not given,,protein level,increased
C=CC[C@H]1OC(=O)CCNC(=O)[C@H](C)N(C)C(=O)[C@H]([C@@H](C)CC)N(C)C(=O)[C@H]([C@@H](C)CC)NC(=O)[C@@H]2[C@@H](C)CCN2C1=O,"western blot, item: p-PDGFR-β, p-AKT, p-ERK","mouse bile duct ligation fibrosis, liver","5 to 10 mg/kg/day, 8 days from day 6",,protein phosphorylation,decreased
C=C(c1ccc(C(=O)O)c(F)c1)c1cc2c(cc1C)C(C)(C)C=CC2(C)C,"RNA sequencing, item: Pdk4","rat, brain","dose not given, 24 h",reference: vehicle,log2 fold change,-0.61
CSCCNc1nc(SCCC(F)(F)F)nc2c1ncn2[C@@H]1O[C@H](COP(=O)(O)OP(=O)(O)C(Cl)(Cl)P(=O)(O)O)[C@@H](O)[C@H]1O,"ADP-induced platelet aggregation, LTA, >59% aggregation","human patients, platelet-rich plasma","dose not given, 3 h, with: ADP 20 µM",,patients with high reactivity,82%
CC(=O)N[C@@H](CC1CCCCC1)C(=O)N[C@H]1CSSC[C@@H](C(=O)N[C@@H](CCCNC(=N)N)C(N)=O)NC(=O)[C@H](CC2CCCCC2)NC(=O)[C@H](CCCNC(=N)N)NC(=O)[C@H](CCCNC(=N)N)NC(=O)[C@H](CC2CCCCC2)NC(=O)[C@H](CC(C)C)NC(=O)[C@H](CCCNC(=N)N)NC(=O)[C@@H](NC(=O)[C@H](CC2CCCCC2)NC(C)=O)CSSC[C@@H](C(=O)N[C@@H](CCCNC(=N)N)C(N)=O)NC(=O)[C@H](CC2CCCCC2)NC(=O)[C@H](CCCNC(=N)N)NC(=O)[C@H](CCCNC(=N)N)NC(=O)[C@H](CC2CCCCC2)NC(=O)[C@H](CC(C)C)NC(=O)[C@H](CCCNC(=N)N)NC1=O,surface plasmon resonance,POPC/POPE membrane,concentration not given,reference: cardiolipin-rich 10% over POPC/POPE only,SPR response increase,50%
CC(=O)N[C@@H](CC(N)=O)C(=O)NCC(=O)N[C@@H](CCCNC(=N)N)C(=O)N[C@@H](C)C(N)=O,1H NMR,sodium phosphate buffer 50 mM,"pH 7.4, 37 °C",,rate constant succinimide to β-Asp,1.29 h⁻¹
CNc1oc(-c2cccc3ccccc23)nc1C#N,,"NOD mice, prediabetic, pancreas","ip, 24 mg/kg daily, 2 weeks",reference: untreated,insulitis score,decreased
Cn1cncn1.[Ru+2].c1cc(-c2ccc3ccccc3n2)nc(-c2ccc3ccccc3n2)c1.c1ccc2cc3nc4c5cccnc5c5ncccc5c4nc3cc2c1,,"M2 macrophages, BALB/c mouse bone marrow-derived",,reference: dark EC50 over light EC50,phototherapeutic index,10
O=C([O-])CN1CCN(CC(=O)[O-])CCN(CC(=O)NC[C@H]2CC[C@H](C(=O)N[C@H](Cc3cnc4ccccc4c3)C(=O)NCCCC[C@H](NC(=O)N[C@@H](CCC(=O)O)C(=O)O)C(=O)O)CC2)CCN(CC(=O)[O-])CC1.[64Cu+2],,"prostate cancer patients, biopsy cores","dose not given, above 66 CPM cut-off",,false-positive cores,10.9%
C[C@@H](O)[C@@H]1NC(=O)[C@H](CCCCN)NC(=O)[C@@H](Cc2ccc(NC(N)=O)cc2)NC(=O)[C@H](Cc2ccc(NC(=O)[C@@H]3CC(=O)NC(=O)N3)cc2)NC(=O)[C@H](NC(=O)[C@H](Cc2ccc(Cl)cc2)NC(=O)CN2CCN(CC(=O)O)CCN(CC(=O)O)CCN(CC(=O)O)CC2)CSSC[C@@H](C(=O)N[C@H](Cc2ccc(O)cc2)C(N)=O)NC1=O [gallium-68 labelled],whole-body PET/CT,neuroendocrine tumour patients,60 min post-injection,,highest lesion SUVmax,≤ 94
C=C(c1cc(F)c(C(=O)O)c(F)c1)c1cc2c(cc1C)C(C)(C)CCC2(C)C,"RNA sequencing, item: Sfrp5","rat, brain","dose not given, 24 h",reference: vehicle,log2 fold change,-0.27
CC(C)c1cnc(-c2cc(Cl)ccc2F)cc1Nc1ccncc1C(=O)NC(CO)CO,"SMAD2/3 phosphorylation, flow cytometry","human patients, peripheral monocytes","250 and 375 mg, alone or with enzalutamide",,inhibition,53 to 81%
CC[C@@H](C)[C@H]1NC(=O)[C@@H]([C@H](C)O)NC(=O)[C@@H](Cc2c[nH]cn2)NC(=O)CNC(=O)[C@@H](CCCNC(=N)N)NC(=O)CNC(=O)[C@@H](Cc2ccccc2)NC1=O,Evans blue,"mouse, STZ diabetic for 6 weeks","eye drop, 0.5% once daily, 5 days",,retinal vascular permeability,decreased
CCN(C(=O)c1cc(F)ccc1Oc1nncnc1N1CCC2(C1)CN([C@H](CCCN(C)CCOC)C(C)C)C2)C(C)C,,"mouse, KMT2A-AF6 AML PDX",all dose levels,reference: vehicle,increase in lifespan,> 89%
COc1cc2c(cc1OC)CC(=O)N(C[C@H]1CCCN(CCOc3ccc(F)cc3)C1)CC2,,"VTA dopamine neurons, stress-naive male mice","intraperitoneal, 10 mg/kg",reference: baseline,firing rate,no effect
N[C@@H](CCC(=O)N[C@@H](CS[Se]Cc1ccc(-c2cc(C(F)(F)F)nn2-c2ccc(S(N)(=O)=O)cc2)cc1)C(=O)NCC(=O)O)C(=O)O,,"nude mouse, 1205 Lu xenograft","i.p., 0.127 µmol alternate days, 4 weeks",reference: vehicle,decrease in tumour volume,≤ 70%
C=C(c1ncc(C(=O)O)cn1)c1cc2c(cc1C)C(C)(C)CCC2(C)C,"RNA sequencing, item: Abca1 mRNA","rat, brain","dose not given, 24 h, single dose",reference: vehicle,log2 fold change,-2.06
CCCCCCOC(=O)Cc1c(C)n(C(=O)c2ccc(Cl)cc2)c2ccc(OC)cc12,hot plate test,BALB/c mice,"100 mg/kg, 120 min",,latency of nociceptive response,16.8 ± 0.54 s
COc1ccc(C2CC(c3ccc(C)cc3)=Nc3ccccc3S2)cc1 (stereo not drawn),,"Wistar rat, STZ-induced diabetes, serum","10 mg/kg, 28 days",,ALT (SGPT),24.4 ± 2.78 IU/L

# Some of these lines once more:
SMILES,test,test system,conditions,scale,endpoint,result
CCN(C(=O)c1cc(F)ccc1Oc1nncnc1N1CCC2(C1)CN([C@H](CCCN(C)CCOC)C(C)C)C2)C(C)C,,"mouse, KMT2A-AF6 AML PDX",all dose levels,reference: vehicle,increase in lifespan,> 89%
C=CC[C@H]1OC(=O)CCNC(=O)[C@H](C)N(C)C(=O)[C@H]([C@@H](C)CC)N(C)C(=O)[C@H]([C@@H](C)CC)NC(=O)[C@@H]2[C@@H](C)CCN2C1=O,"western blot, item: p-PDGFR-β, p-AKT, p-ERK","mouse bile duct ligation fibrosis, liver","5 to 10 mg/kg/day, 8 days from day 6",,protein phosphorylation,decreased
CC(C)(O)c1ccc(N2Cc3c(ccnc3-c3ccc(F)cc3OCC(F)(F)F)C2=O)cc1,,"mouse, cerebral cortex","300 mg/kg, 6 h",reference: vehicle,glucosylceramide level,40 ± 3%
CC(=O)N[C@@H](CC1CCCCC1)C(=O)N[C@H]1CSSC[C@@H](C(=O)N[C@@H](CCCNC(=N)N)C(N)=O)NC(=O)[C@H](CC2CCCCC2)NC(=O)[C@H](CCCNC(=N)N)NC(=O)[C@H](CCCNC(=N)N)NC(=O)[C@H](CC2CCCCC2)NC(=O)[C@H](CC(C)C)NC(=O)[C@H](CCCNC(=N)N)NC(=O)[C@@H](NC(=O)[C@H](CC2CCCCC2)NC(C)=O)CSSC[C@@H](C(=O)N[C@@H](CCCNC(=N)N)C(N)=O)NC(=O)[C@H](CC2CCCCC2)NC(=O)[C@H](CCCNC(=N)N)NC(=O)[C@H](CCCNC(=N)N)NC(=O)[C@H](CC2CCCCC2)NC(=O)[C@H](CC(C)C)NC(=O)[C@H](CCCNC(=N)N)NC1=O,surface plasmon resonance,POPC/POPE membrane,concentration not given,reference: cardiolipin-rich 10% over POPC/POPE only,SPR response increase,50%
CC(C)(CCCC/C=C/CCCCCC(C)(C)C(=O)O)C(=O)O,,"rhesus monkey, spontaneous hyperlipidemia","20 mg/kg, 2 weeks",reference: baseline,reduction in plasma LDL-C,20.1%
CC(C)[C@H](N)C(=O)N1CCC[C@H]1C(=O)NCC(=O)NCC(=O)O,"diketopiperazine formation, Arrhenius plot, ESI-MS",1-propanol,"70, 80, 90 °C, 0.5% acetic acid",,ΔG‡ at 298.15 K,22.9 ± 0.239 kcal/mol
